Measurements collected from several papers.
Each numbered part is a random draw from the data of one study; scales do not carry over between parts. Substitutions count along the parent as printed.

Series 1
Target: Fragile X messenger ribonucleoprotein 1, C-terminal low-complexity region (Fmr1, Mus musculus, UniProt P35922)
Method: RNA Bind-n-Seq
Molecule type: RNA
Matrix: in vitro
Concentration: 200 nM
Setting: whole 134-nt RNA, ends assumed
With: 150 mM LiCl
Reference: input library
Reading: higher = stronger binding
Endpoint: log2 enrichment
All molecules: 7-deaza-guanosine replaces G
All sequences stand within: GGGAGUUCUACAGUCCGACGAUC … UGGAAUUCUCGGGUGUCAAGG
Oligonucleotide = UGGCCCUGGUGGCAUGCGGGGAGGAAGAGGUGGCCUCAUGGAUCGUGGUGGUCCCGGUGGAAUGUUCAGAGGUGGCCGUGGUGGACACAG; value = -0.829
Oligonucleotide = UUCCCAAGAUGGCGGCGGACGUGUCCGUUACUCACCGGCCCCCGCUGAGCCCUAAGUCUGGGGCCGAAGUCGAAGCCGGCGAUGCCGCGG; value = -3.84
Oligonucleotide = CUGUGCUACACAUCGUAUGUACCGAAUCGGGUUUUUUUGGGGUUUUUUUGGUUUUUUUGGGAAAGUAUUAUGUUACGCCGUUCGGAUCUG; value = 0.65
Oligonucleotide = UUCUUACAUGUGUAAUCUUCUUCUCCUAGGGCGGCAGAACUCAUGACAAGAACAAGCUCUGUGGUGACACUGGAAGUAGCAAAGCAGGGU; value = -0.0507
Oligonucleotide = CAAGUCCUGUGCUACACAUCGUAUGUACCGAAUCGGUUUUUGGUUUGGUUUUUGGAAAGUAUUAUGUUACGCCGUUCGGAUCUGCACUUC; value = -1.81
Oligonucleotide = CAAGUCCUGUGCUACACAUCGUAUGUACCGAAUCGGGGUGGGGUUUGGGGAGGGGAAAGUAUUAUGUUACGCCGUUCGGAUCUGCACUUC; value = -0.26
Oligonucleotide = CAAGUCCUGUGCUACACAUCGUAUGUACCGAAUCGGGUUUUUUUGGGUGGGAGGGAAAGUAUUAUGUUACGCCGUUCGGAUCUGCACUUC; value = -0.353
Oligonucleotide = UGGCCCUGGUGGCAUGCGGGUAGGAAGAGGUGGCCUCAUGGAUCGUGGUGGUCCCGGUGGAAUGUUCAGAGGUGGCCGUGGUGGAGACAG; value = 0.296

Series 2
Target: ABI1, truncated, D143A, DHFR fusion (Arabidopsis thaliana)
Method: DHFR PCA, deep sequencing
Matrix: yeast
Setting: methotrexate growth selection, single substitutions
With: (+)-ABA 0.0091 µM
Reference: wild-type fitted maximum
Reading: higher = stronger binding
Endpoint: relative binding score
Parent: PYL1, truncated, DHFR fusion (Arabidopsis thaliana); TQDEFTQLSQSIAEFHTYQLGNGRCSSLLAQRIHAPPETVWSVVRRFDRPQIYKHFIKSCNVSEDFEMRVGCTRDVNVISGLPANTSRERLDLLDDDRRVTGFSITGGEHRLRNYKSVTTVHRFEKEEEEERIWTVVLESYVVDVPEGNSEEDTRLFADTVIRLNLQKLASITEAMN
Substitution = G21C; value = 15.9%
Substitution = P37W; value = 0.298%
Substitution = P36A; value = 16.7%
Substitution = Y53Q; value = -4.52%
Substitution = W134R; value = 8.03%
Substitution = P50H; value = 7.8%
Substitution = N165Q; value = -5.53%
Substitution = P37V; value = 10.6%
Substitution = Q10P; value = 31.5%
Substitution = R74C; value = 2.15%
Substitution = V43Y; value = -0.923%
Substitution = D75K; value = 8.86%
Substitution = T86S; value = 17.6%
Substitution = F157C; value = 1.22%
Substitution = K116R; value = 45.7%
Substitution = K168R; value = 23.4%

Series 3
Target: RNA binding protein fox-1 homolog 2, RRM domain, GST-SBP tag (RBFOX2, Homo sapiens, UniProt O43251-10, residues 100-194)
Method: RNA Bind-n-Seq
Molecule type: RNA
Matrix: in vitro
Concentration: 365 nM
Setting: natural RNA segment, single round, ends assumed
Reference: no-protein control
Reading: higher = stronger binding
Endpoint: RBNS enrichment (R)
All sequences stand within: GGGAGUUCUACAGUCCGACGAUC … UGGAAUUCUCGGGUGCCAA
Construct (chain): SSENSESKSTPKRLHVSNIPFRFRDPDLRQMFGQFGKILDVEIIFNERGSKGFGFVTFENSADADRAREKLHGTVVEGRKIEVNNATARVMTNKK
Oligonucleotide = AGAAUGAGCCAACCCAUGUACCUGCUGCAACUGAACCAGACUGGGUUUUCAAGGCUCCCAGACGUAGAGUAGGAAACGUGCUCUUCUAAAUGAGGAGGGAGAAGAUAAAG; value = 1.02
Oligonucleotide = CGCCACCAUCAGGCUGCCGCUUCCUAACUUAUUAACCGGGCAGUGCCCGCCAUGCAUCCUUGAUGUUUGCCGCCUGGCGGCUGAGCCCUUAGCCUCGCUGUAGAGACUUC; value = 1.39
Oligonucleotide = ACUGGUAUUUGGAAUUUUUUUUCCUUUAAUCUUUGGUUUAAAAACAUCUUAAAAUCACUUAUAUACAAUCAUUAAAAGAGUGGUAAUUUUAUAAAUGCUUAUUUAUGUUA; value = 0.479
Oligonucleotide = GUGUCUUGGUUUCACUGUUUUUGUUUUGAUUUUUUUUUUGUUUUGAUUUUUUUUAAACUAAAGCUAUAUAAAGCUUGUGGAUUAAACAGAAUAAAUUUCUAAAUUUAAAA; value = 1.32
Oligonucleotide = CUACCUUUGCUGGCUUGGCUCCUGCUCCCAGGCCAGGGACCUCGGUCUGUCUACUACACACUCUGGUUUCUCCCUGCACUGUCUUUUUACUGUUAGCCAAACAUUUUGCC; value = 3.09
Oligonucleotide = GAGCAUCAGGGUGGGGGUCUCCUCCGCAGCAAGGUUGAUGACACAUUUACAGUGCUUGCUCUGAGCAGCUCAGAAGACAGUAGAGAAUGCGAGAGGACCUUCUGACGGUG; value = 0.815
Oligonucleotide = AGAUUACUUUUUCAACUGUAAAUAAUGUACAUUUAAUGUCACAAGAAAAAAAUGUCUUCUGCAAAUUUUCUAGUAUAACAGAAAUUUUUGUAGAUGAAAAAAAUCAUUAU; value = 0.599
Oligonucleotide = AGCUUUUAUUUCAUUACAAUUAAAGAUGUCUCAUGUACUUGGAAAAGUGAGCAUAUUUUUUUUUGUAUUUGAAUUUCAUAUCAAGCUUAAUGUCAGUGACAUUUUUUUAU; value = 0.851
Oligonucleotide = AGCCAUGAGAGUGAGGACUUUCCGCGCCCAUUGGUGACCCUUCCAGGCAGACAGCCUCAGCAACGCCCCUGGUGGACAGGAUGGUUCGGCAAAGCAGCCUGAGUUAUUUU; value = 0.205
Oligonucleotide = ACUUUGAACAUUCGUUAUGGGGAAAACAUCCUUUAACUUCGGGGUCGUCUGCCAGAGCAGGGUCUGGGAGGGUCCAUGCAGUUCCCGCUGGUGUGGAGGGAAAUGCCCUG; value = 0.487
Oligonucleotide = UGCCUGAGGUACUUUUUAAGGAGGUAGUGUACAUGGGACCUUUUUGAAGUAGACUGGAUAAGGGCCAGUAGCGACUUGCGACUAGACUUUAAACUUUGCUCUUUCAGGUG; value = 1.04
Oligonucleotide = UUGUUCGUGGGCCACCAACCCUGGAAUACGGCUGAUGGAUGGCUUUGUUGGCAACAAAACAGGAUAUUUCUCUCCUGAAUGUUGGUUUUGCAGACCCUACACAGCGGCCC; value = 0.285

Series 4
Target: CCNE1, cyclin fold, Cln2 fusion (human)
Method: yeast growth competition, sequencing
Matrix: yeast
Setting: strong parent motif
Reference: not given
Reading: higher = stronger binding
Endpoint: normalised enrichment score
Parent: PKMYT1 docking peptide (human); SFEPRNLLSLFED; partner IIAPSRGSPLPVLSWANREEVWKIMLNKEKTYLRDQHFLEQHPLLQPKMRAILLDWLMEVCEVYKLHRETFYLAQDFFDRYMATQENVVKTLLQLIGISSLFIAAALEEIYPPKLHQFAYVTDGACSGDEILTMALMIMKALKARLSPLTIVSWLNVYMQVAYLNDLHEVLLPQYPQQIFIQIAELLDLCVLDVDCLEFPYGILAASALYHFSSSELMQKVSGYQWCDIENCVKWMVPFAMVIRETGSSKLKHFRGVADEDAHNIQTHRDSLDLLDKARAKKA
Substitution = SFEPRNLLILFED [S9I]; value = 1.36
Substitution = SFEPRNLLSLYED [F11Y]; value = 0.907
Substitution = SFEPRNLLSRFED [L10R]; value = 1.26
Substitution = SFEPHNLLSLFED [R5H]; value = -0.155
Substitution = SFEPRNLLSLFET [D13T]; value = 1.79
Substitution = SFEPRNLLKLFED [S9K]; value = 1.51
Substitution = SFEPRNLLSLDED [F11D]; value = 0.298
Substitution = SFEPRNLLSLFER [D13R]; value = 1.3
Substitution = SFEPINLLSLFED [R5I]; value = 1.35
Substitution = SFEPRNLLSLFTD [E12T]; value = 1.49
Substitution = SFEPRNLLSLTED [F11T]; value = 0.866
Substitution = SFEPRNLNSLFED [L8N]; value = 1.04
Substitution = SFEPRNLHSLFED [L8H]; value = 0.734

Series 5
Target: RING finger protein unkempt homolog, zinc fingers 1-6, GST-SBP tag (UNK, Homo sapiens, UniProt Q9C0B0, residues 30-357)
UniProt Q9C0B0, sequence (30-357, looked up): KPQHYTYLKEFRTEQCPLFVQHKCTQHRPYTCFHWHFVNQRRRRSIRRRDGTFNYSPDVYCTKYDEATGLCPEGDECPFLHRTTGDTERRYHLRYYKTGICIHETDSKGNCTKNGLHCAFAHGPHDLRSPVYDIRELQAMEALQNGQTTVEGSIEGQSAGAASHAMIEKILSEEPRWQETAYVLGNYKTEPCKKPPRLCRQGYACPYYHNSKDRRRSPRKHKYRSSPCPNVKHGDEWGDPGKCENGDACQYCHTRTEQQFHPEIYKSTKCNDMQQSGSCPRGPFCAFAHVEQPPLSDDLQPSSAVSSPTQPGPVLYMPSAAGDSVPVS
Method: RNA Bind-n-Seq
Molecule type: RNA
Matrix: in vitro
Concentration: not given
Setting: RNA with constant flanks, human-mouse chimeric sites, ends assumed
Reference: input RNA pool
Reading: higher = stronger binding
Endpoint: bound/input enrichment
All sequences stand within: GGGAGUUCUACAGUCCGACGAUC … CAACAGAGGAUUGAGCAUCA
Oligonucleotide = UCUGGUCACACUCGUGUGUAUGGUGUUUGCUUUGUGGAUACUUCACUGGGCAAGUUUUUCAUAGGUCAGUUUUCGGAUGACCGCCACUGUUCCAGAUUUAGGACGCUAGUGGCUCACUAU; value = 0.315 ratio
Oligonucleotide = GGCCUGGGACCGUCCUGGGCUAGUACAAAUAGCGGCAGUGGAGGCUCAGAGGAAAGUUUUGUUAGUGGAGGCAGUGGAGAGGUCGUCCAUGUACGGUCCUUUACUCGAUAGAUGUGUUCU; value = 0.639 ratio
Oligonucleotide = CACGUGUCUGCAGUACUUGAUGUGGACUACUCUCCCACUGGGAAGGAAUUUGUGUCUGCCAGCUUUGAUAAAUCUAUUAGAAUCUUUCCUGUGGACAAGAGCCGAAGCAGGGAAGUGUAU; value = 0.426 ratio
Oligonucleotide = CUCAUGGCUGCAGAAACAGGAAGUGGCAAAACUGGUGCUUUUAGUAUUCCCGUUAUCCAGAUAGUGUAUGAAACUCUGAAAGACCAACAGGAAGGAAAGAAAGGGAAAACAACUAUUAAA; value = 0.617 ratio
Oligonucleotide = AGAUUCCCCCUCCUGAGACCUCCUCCGAAGUUGGAGUCUCUUACAGAUGCCUCAUCCCCUGUUAGCGUUUUGGUCUGGACCACCCAGCCUUGGACGAUUCCCGCCAACCAGGCAAUUUGC; value = 0.372 ratio
Oligonucleotide = UAUAAUAAUCAUGAAAUUCGUUCCGGGAAACAUAUUGGUGUCUGCAUCUCAGUUGCCAACAAUAGGCUUUUUGUGGGCUCUAUUCCUAAGAGUAAAACCAAGGAGCAGAUUCUUGAGGAA; value = 0.982 ratio

Series 6
Target: JUNB, bZIP domain (human)
Method: DHFR protein complementation
Matrix: yeast
Setting: single substitutions, most at no-binding floor
Reference: wild-type JUN-FOS pair
Reading: higher = stronger binding
Endpoint: binding fitness
Parent: JUN, bZIP domain (human); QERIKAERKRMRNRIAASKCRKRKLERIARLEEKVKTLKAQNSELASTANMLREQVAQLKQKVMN; partner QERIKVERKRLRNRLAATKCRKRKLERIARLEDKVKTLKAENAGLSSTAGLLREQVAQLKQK
Substitution = L38Y; value = -1.55 natural log
Substitution = V35T; value = -1.57 natural log
Substitution = A49H; value = -1.44 natural log
Substitution = E54Q; value = -1.18 natural log
Substitution = R30T; value = -0.9 natural log
Substitution = A46C; value = -1.07 natural log
Substitution = L31N; value = -1.48 natural log
Substitution = E44P; value = -1.56 natural log
Substitution = Q55K; value = -1.26 natural log
Substitution = L52S; value = -1.55 natural log
Substitution = S43K; value = -0.743 natural log
Substitution = L52H; value = -1.51 natural log
Substitution = S47E; value = -0.823 natural log
Substitution = A40V; value = -1.22 natural log
Substitution = E54I; value = -1.26 natural log
Substitution = E54G; value = -1.27 natural log

For quick reference, copied from above (series 5):
Oligonucleotide = UCUGGUCACACUCGUGUGUAUGGUGUUUGCUUUGUGGAUACUUCACUGGGCAAGUUUUUCAUAGGUCAGUUUUCGGAUGACCGCCACUGUUCCAGAUUUAGGACGCUAGUGGCUCACUAU; value = 0.315 ratio
Oligonucleotide = GGCCUGGGACCGUCCUGGGCUAGUACAAAUAGCGGCAGUGGAGGCUCAGAGGAAAGUUUUGUUAGUGGAGGCAGUGGAGAGGUCGUCCAUGUACGGUCCUUUACUCGAUAGAUGUGUUCU; value = 0.639 ratio
Oligonucleotide = CACGUGUCUGCAGUACUUGAUGUGGACUACUCUCCCACUGGGAAGGAAUUUGUGUCUGCCAGCUUUGAUAAAUCUAUUAGAAUCUUUCCUGUGGACAAGAGCCGAAGCAGGGAAGUGUAU; value = 0.426 ratio
Oligonucleotide = CUCAUGGCUGCAGAAACAGGAAGUGGCAAAACUGGUGCUUUUAGUAUUCCCGUUAUCCAGAUAGUGUAUGAAACUCUGAAAGACCAACAGGAAGGAAAGAAAGGGAAAACAACUAUUAAA; value = 0.617 ratio
Oligonucleotide = AGAUUCCCCCUCCUGAGACCUCCUCCGAAGUUGGAGUCUCUUACAGAUGCCUCAUCCCCUGUUAGCGUUUUGGUCUGGACCACCCAGCCUUGGACGAUUCCCGCCAACCAGGCAAUUUGC; value = 0.372 ratio
Oligonucleotide = UAUAAUAAUCAUGAAAUUCGUUCCGGGAAACAUAUUGGUGUCUGCAUCUCAGUUGCCAACAAUAGGCUUUUUGUGGGCUCUAUUCCUAAGAGUAAAACCAAGGAGCAGAUUCUUGAGGAA; value = 0.982 ratio
